Assay results gathered from unrelated publications.
Each numbered part is a random draw from the data of one study; scales do not carry over between parts.

Sample 1 — technique: RNA Bind-n-Seq; form: RNA; medium: in vitro; concentration: 365 nM; relative to: no-protein control; reading: higher = stronger binding
Target: RNA binding protein fox-1 homolog 2, RRM domain, GST-SBP tag (RBFOX2, Homo sapiens, UniProt O43251-10, residues 100-194)
Setting: natural RNA segment, single round, ends assumed
All sequences stand within: GGGAGUUCUACAGUCCGACGAUC … UGGAAUUCUCGGGUGCCAA
Target sequence (chain): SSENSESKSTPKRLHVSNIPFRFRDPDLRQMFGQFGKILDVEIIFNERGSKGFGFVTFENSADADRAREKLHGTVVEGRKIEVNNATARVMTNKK
Sequence	RBNS enrichment (R)
AUUCCUCUUGCCCAACGGCAUAUGGAGUGUCCUUAUUGCUAAAAAGGAUUCCGUCUCCUUCAAAGAAGUUUUAUUUUUGGUCCAGAGUACUUGUUUUCCCGAUGUGUCCA	0.474
GUGUGUAUUCCUUUCCACUACAGAAGAACCAUCACUCUCAUGGGUGUCCCAGCCUCCAGCAAGGGCACAGCUCUGUCCCCUGCCUUUCUCUCCCUUUGUCCCCACUGCAU	1.06
GGCUGCCUCGGGCAGGGCCUCCGGCCUCCGGCGCUCUCCCAGGAGGAGGUCAAGUUCCACACGCACGAGCCGCCUCAGCUGGACGGUGCAGUCAUGGCUGGCACAUGAGG	0.634
GCCAGUGUGGGGAAGAGAUACAGUAUGUUGGACAGAUAAAAACAUGUGUUAUUUCUUGGUCAAUUUUCUAUUCAUAUUCCUUAUUUUGGCCAGUUCUUUUGUUUGUGCUU	0.325
ACUUUCAGGAGCCUCAGGAUCAGUCCUCUAGCAUUUCCUUCACCUUUCUCAUGUACAGGGGCAGCGUGUCUGUGUGUGGAGGGUCCGGGUUACAAGGUAAGCUAGGUUGC	0.325
AGUUCACUGUUGAUCCUGUUGUAGGUGGUUGGGCUGCUGGUCACCAUGCCACCACUUGGGUUUUUUCCAUGGGAAGCAGCCUGCUGGGUGUGCAAGGCCGAGUGAUGGCU	0.412
UGAUGUAUCAUCAAUUUUAUUACUUUCUGUCUAUGUUUGCAAAAGUAGUAGAGUUUAAUUCACCAUAUGAACCUCAUUCUGAUGUUUUUGAUUUGAUAGUCUUGAUCUAA	0.381
GUUUGUAAGAAGUACUUUCGUUAAUCUUGCUGCUUAUGUGUCAAUUUAGUGGAAAAGAAAUCCCUUGCUGAAAAAAAAAAUCCCUUUCCAUUCUCUUCCAGUUCUGUGGU	0.419

Sample 2 — technique: RNA Bind-n-Seq; form: RNA; medium: in vitro; concentration: 1 µM; setting: whole 134-nt RNA, ends assumed; together with: 150 mM KCl; relative to: input library; reading: higher = stronger binding
Target: Ras GTPase-activating protein-binding protein 1, RRM domain (G3BP1, Homo sapiens, UniProt Q13283)
Sequence of UniProt Q13283 (whole entry, looked up): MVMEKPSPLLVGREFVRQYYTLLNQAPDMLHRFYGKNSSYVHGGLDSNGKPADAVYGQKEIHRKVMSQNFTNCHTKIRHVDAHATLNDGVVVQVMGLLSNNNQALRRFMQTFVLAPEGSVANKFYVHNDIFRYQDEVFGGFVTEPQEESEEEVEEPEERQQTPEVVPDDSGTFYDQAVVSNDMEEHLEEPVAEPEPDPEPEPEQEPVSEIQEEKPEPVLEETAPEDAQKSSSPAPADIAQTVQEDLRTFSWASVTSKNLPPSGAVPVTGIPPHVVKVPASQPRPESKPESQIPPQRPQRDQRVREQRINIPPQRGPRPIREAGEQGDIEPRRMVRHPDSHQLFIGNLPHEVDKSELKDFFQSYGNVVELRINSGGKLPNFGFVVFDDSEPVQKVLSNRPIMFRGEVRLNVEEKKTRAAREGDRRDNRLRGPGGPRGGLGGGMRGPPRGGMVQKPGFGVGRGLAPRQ
All sequences stand within: GGGAGUUCUACAGUCCGACGAUC … UGGAAUUCUCGGGUGUCAAGG
Sequence	log2 enrichment
GCAGGAAGUAAAAACAAAUGGAAAUGCUUCGGAUAGUGGCAGGGGUGGGGGUUGCUAAGGAAAGGGUGGGAUGGGAGUGGGUAAAGAGUC	1.25
CAAGUCCUGUGCUACACAUCGUAUGUACCGAAUCGGUUUGGAAAAAAAGGUUUGGAAAGUAUUAUGUUACGCCGUUCGGAUCUGCACUUC	-0.419
UCAAGUCCUGUGCUACACAUCGUAUGUACCGAAUCGGGCCGGGCCGGGGCCGGGAAAGUAUUAUGUUACGCCGUUCGGAUCUGCACUUCC	-0.662
CACAGACAACACGCACCCACACAGACACAGAGGGAAGGGGUUGGGAUGGGGACAGGGUGCACAGCAGGGCGGGGUAGGACCCCAAAACCU	-0.226
GUCCUGUGCUACACAUCGUAUGUACCGAAUCGGGAAAAAGGGAAAAAAAGGGAAAGGGAAAGUAUUAUGUUACGCCGUUCGGAUCUGCAC	0.283
AAUAACUGACGCUGCAUUUAAUUUUUUUGCCAGUUUAAAAUGUUUGUGUGUUUUUAUAGAUGAUUUUAACUGGUACAUAUUUUGAGUUAA	-0.43
UCAAGUCCUGUGCUACACAUCGUAUGUACCGAAUCGGGAGGGUUUUUGGGAGGGAAAGUAUUAUGUUACGCCGUUCGGAUCUGCACUUCC	0.619
CAAGUCCUGUGCUACACAUCGUAUGUACCGAAUCGGGUGGGAAAGGGUUUUUGGGAAAGUAUUAUGUUACGCCGUUCGGAUCUGCACUUC	0.692
AGUCCUGUGCUACACAUCGUAUGUACCGAAUCGGGGAAAAAGGGGUUUGGGGUGGGGAAAGUAUUAUGUUACGCCGUUCGGAUCUGCACU	1.12

Sample 3 — technique: RNA Bind-n-Seq; form: RNA; medium: in vitro; concentration: not given; relative to: input RNA pool; reading: higher = stronger binding
Target: RING finger protein unkempt homolog, zinc fingers 1-6, GST-SBP tag (UNK, Homo sapiens, UniProt Q9C0B0, residues 30-357)
Setting: RNA with constant flanks, human-mouse chimeric sites, ends assumed
All sequences stand within: GGGAGUUCUACAGUCCGACGAUC … CAACAGAGGAUUGAGCAUCA
Residues (chain): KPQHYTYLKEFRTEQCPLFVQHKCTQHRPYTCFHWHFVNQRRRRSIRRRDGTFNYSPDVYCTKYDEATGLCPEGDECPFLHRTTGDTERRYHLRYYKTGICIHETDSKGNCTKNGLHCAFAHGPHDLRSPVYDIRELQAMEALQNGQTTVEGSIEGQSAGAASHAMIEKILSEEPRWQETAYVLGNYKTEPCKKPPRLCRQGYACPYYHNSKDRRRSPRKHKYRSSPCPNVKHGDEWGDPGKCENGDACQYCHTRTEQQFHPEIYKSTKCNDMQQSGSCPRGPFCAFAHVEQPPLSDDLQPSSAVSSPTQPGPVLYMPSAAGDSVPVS
Sequence	bound/input enrichment [ratio]
ACUCAGAGAUCCACCUCAAUUGAAGUGGGGAGUAAAGGUGUGGCCACUCAAUUCUCCUUGAUGGAUAUAUAUUUUUUUUAAUAUGAAUCUUCCUGUUCGUCCAGGGAAGAAAGAUUUGUU	0.358
CAGGGCACAGCACCUACCCCCUCCUCCUUUCCACACCUGCAAACUCUUUUGCCUGGGCUGAAUAUUUAGUGUAAUUACAUCUCAGCUUUGAGGGCUCCUGUGGCAAAUUCCCGGAUUAAA	0.529
GAGCGUCUUGCCCGCACUGGGAUCAUCGUGACCACUAGUGAGGCUGUCCUCCUACAGCUGGUGGCUGAUAAGGACCACCCGAAGUUCAAGGAAAUUCAGAACCUAAUUAAGGCGAGUGCC	0.155
AGAUUCCCCCUCCUGAGACCUCCUCCGAAAUUGGCAUCUCUUACAGAUGCCUCAUCCCCUGUUAGCGUUUUAGUUUGGACCACCCAGCCUUGGACGAUUCCCGCCAACCAGGCAAUUUGC	1.23
AGAGAAAUGAGAAAGAAUCUUACACAAGAUGAGAUGCAAAGAAUGUCUACUAGAGUCCUUUUGGCGACUCUUUCCAUCCCUAUUACUCCUGAGCGAACUGAUAUUGCUCGACUUUUGGAU	0.0996
GCUCUUGGCAAUGUAAUAAGUGCCUUGGGGGACAAGAGCAAGAGAGCCACCCAUGUCCCUUACAGAGACUCUAAGCUGACAAGACUCUUGCAGGAUUCCCUUGGGGGUAACAGCCAAACC	0.104
GAGCGUCUUGCCCGCACUGGGAUCAUCGUGACCACUAGUGAGGCUGUCCUCCUACAGCUGGUAGCUGACAAAGACCACCCGAAGUUCAAGGAAAUUCAGAAUCUAAUUAAGGCGAGUGCC	0.175
CCCUCCCCGGGCCACCCACCCCUCCCGGCUCCCCGCCAGAGCAAGGUUUUCUUCUUAUUUCAUAGCAAGCCAGAACAAUGUUCUACGCACAUUUUGUCCUCAGUAAACGAGGGCCUCUGG	0.642

Sample 4 — technique: protein binding microarray; form: double-stranded DNA, one strand shown; medium: in vitro; concentration: not given; relative to: not given; reading: higher = stronger binding
Target: Histone acetyltransferase KAT6A, both winged helices, GST fusion (KAT6A, Homo sapiens, UniProt Q92794, residues 1-181)
Setting: 8-mer, flanks averaged, mean of 2 arrays, mostly near background
Target sequence (chain): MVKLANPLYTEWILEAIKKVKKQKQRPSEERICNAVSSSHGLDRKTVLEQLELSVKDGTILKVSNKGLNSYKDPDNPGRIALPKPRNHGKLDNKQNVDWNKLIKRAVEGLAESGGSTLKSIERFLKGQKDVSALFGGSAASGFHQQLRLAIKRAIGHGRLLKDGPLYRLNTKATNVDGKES
Sequence	E-score
ATGTTGGC	0.141
GTGTGAAA	-0.0275
AGTCAGCC	-0.084
ATGGCTCA	-0.258
ACCGATCG	0.14
ACGCATCA	0.0896
GAGGATAC	-0.161
GAAGATCA	-0.0502
AGGGCAAA	-0.0807
GCGGATAA	0.205
GACCTCGA	0.0328
ATGGTCTG	-0.145
CATTACGA	0.0987
TACCTTAA	0.00677
CGGGGCCC	0.148
CACGCACG	0.235
TACGTAAA	-0.0123
ATAACGTC	0.0237
TGTACTAA	-0.05
ATCATAGC	-0.0809
AAAAAGTT	-0.188
AGATCACG	0.0266
GGCGCTGA	0.161
AGCATCCG	0.0237
ACCTGCGT	0.0285

For quick reference, copied from above (sample 2):
Sequence	log2 enrichment
UCAAGUCCUGUGCUACACAUCGUAUGUACCGAAUCGGGAGGGUUUUUGGGAGGGAAAGUAUUAUGUUACGCCGUUCGGAUCUGCACUUCC	0.619
CAAGUCCUGUGCUACACAUCGUAUGUACCGAAUCGGGUGGGAAAGGGUUUUUGGGAAAGUAUUAUGUUACGCCGUUCGGAUCUGCACUUC	0.692
GCAGGAAGUAAAAACAAAUGGAAAUGCUUCGGAUAGUGGCAGGGGUGGGGGUUGCUAAGGAAAGGGUGGGAUGGGAGUGGGUAAAGAGUC	1.25
GUCCUGUGCUACACAUCGUAUGUACCGAAUCGGGAAAAAGGGAAAAAAAGGGAAAGGGAAAGUAUUAUGUUACGCCGUUCGGAUCUGCAC	0.283
UCAAGUCCUGUGCUACACAUCGUAUGUACCGAAUCGGGCCGGGCCGGGGCCGGGAAAGUAUUAUGUUACGCCGUUCGGAUCUGCACUUCC	-0.662
